Literature values as cited in several papers.
Lines come from different studies, so protocols differ.
UniProt Q15831, sequence (whole entry, looked up): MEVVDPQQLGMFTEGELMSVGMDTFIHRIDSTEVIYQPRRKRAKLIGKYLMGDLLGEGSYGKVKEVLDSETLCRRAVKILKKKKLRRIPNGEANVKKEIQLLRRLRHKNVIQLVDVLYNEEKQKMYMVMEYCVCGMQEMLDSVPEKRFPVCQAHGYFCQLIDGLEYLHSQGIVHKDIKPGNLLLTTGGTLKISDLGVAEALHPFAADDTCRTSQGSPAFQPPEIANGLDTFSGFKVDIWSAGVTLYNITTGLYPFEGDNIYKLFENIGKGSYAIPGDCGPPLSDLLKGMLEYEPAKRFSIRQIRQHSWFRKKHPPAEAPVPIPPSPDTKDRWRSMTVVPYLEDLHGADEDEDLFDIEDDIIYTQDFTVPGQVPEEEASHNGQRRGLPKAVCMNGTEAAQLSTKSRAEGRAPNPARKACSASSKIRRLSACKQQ

SMILES | target or system | test | system | conditions | scale | measurement | result
O=NN(CCCl)C(=O)NC1CCCCC1 | – | – | patients, recurrent glioblastoma | dose not given, monotherapy | – | median progression-free survival | 1.9 months
COc1cc(N2CCC3(CCN(C)CC3)CC2)ccc1Nc1ncc(Cl)c(Nc2ccccc2P(C)(C)=O)n1 | – | – | ALK TKI-naive ALK-positive NSCLC patients | dose not given | – | median PFS | 27.7 months
COc1nc(C)cnc1NS(=O)(=O)c1cccnc1-c1ccc(-c2nnco2)cc1 | – | – | advanced prostate cancer patients | dose not given, phase II | – | median time to progression | no effect
C[C@@H](Oc1cc(-c2cnn(C3CCNCC3)c2)cnc1N)c1c(Cl)ccc(F)c1Cl | – | – | NSCLC patients | dose not given | – | median duration of response | 35 weeks
CC(=O)O[C@H]1C(=O)[C@@]2(C)[C@H]([C@H](OC(=O)c3ccccc3)[C@]3(O)C[C@H](OC(=O)[C@H](O)[C@@H](NC(=O)c4ccccc4)c4ccccc4)C(C)=C1C3(C)C)[C@]1(OC(C)=O)CO[C@@H]1C[C@@H]2O | – | – | taxane-naive platinum-treated ovarian cancer patients | 67 mg/m2 weekly, monotherapy | – | median time to progression | 6.1 months
Cc1ccc(Nc2nccc(N(C)c3ccc4c(C)n(C)nc4c3)n2)cc1S(N)(=O)=O | – | – | paediatric sarcoma patients | dose not given | – | median overall survival | 6.2 months
Cc1cc(C)c(CNC(=O)c2cc(Cl)c3c(c2C)O[C@@](C)([C@H]2CC[C@H](N(C)C)CC2)O3)c(=O)[nH]1 | – | – | relapsed/refractory PTCL patients | dose not given | – | median PFS | 52 weeks
Nc1cccc2c1C(=O)N(C1CCC(=O)NC1=O)C2=O (centres unmarked) | – | – | relapsed refractory multiple myeloma patients | dose not given, phase II, sample A patients, together with: low-dose dexamethasone | – | median overall survival | 16.5 months
Nc1cc(C(F)(F)F)c(-c2nc(N3CCOCC3)nc(N3CCOCC3)n2)cn1 | STK11 (Homo sapiens, UniProt Q15831) | enzyme activity | – | 10 µM | baseline: untreated | remaining activity | 92%
CN(C)C(=O)c1cc2cnc(Nc3ccc(N4CCNCC4)cn3)nc2n1C1CCCC1 | – | – | HR+/HER2- advanced breast cancer, progressed on endocrine therapy | together with: fulvestrant | – | median PFS | 14.6 months
CON(C)C(=O)N1N=C(c2cc(F)ccc2F)S[C@@]1(CCCN)c1ccccc1 | – | – | multiple myeloma patients | dose not given | – | median time to response | 3.7 months
